Results from different studies.
Protocols differ between the studies behind these lines. Several values in a cell are separate wells, animals, samples, runs or records. Numbers after ± are the reported error.

Structure (SMILES)	species	medium	route	dose	notes	Cmax
C/C(N)=N/C(=N\S(=O)(=O)c1ccc(C(F)(F)F)cc1)N1C[C@H](c2ccccc2)C(c2ccc(Cl)cc2)=N1	C57BL/6 mouse male	adipose tissue	intravenous	10 mg/kg	–	9830 ng/mL
O=C(Cc1ccc(OCc2ccccc2)cc1)NC1(C(=O)O)CCN(C(=O)c2ccc(-c3cccc(Cl)c3)cc2)CC1	mouse BALB/c female	–	intraperitoneal	20 mg/kg	–	3470 ± 400 ng/mL
CN[C@H](CC(C)C)C(=O)N[C@H]1C(=O)N[C@@H](CC(N)=O)C(=O)N[C@H]2CN[C@H]3C(=O)N[C@H](C(=O)N[C@H](C(=O)NCCCNC(=N)N)c4cc(O)cc(O)c4-c4cc3ccc4O)[C@H](O)c3ccc(c(Cl)c3)Oc3cc2cc(c3O[C@@H]2O[C@H](CO)[C@@H](O)[C@H](O)[C@H]2O[C@H]2C[C@](C)(NCc3ccc(-c4ccc(Cl)cc4)cc3)[C@H](O)[C@H](C)O2)Oc2ccc(cc2Cl)[C@H]1O	mouse	–	intravenous	10 mg/kg	–	78900 ng/mL
O=c1c(-c2cnn(-c3ccccc3)c2)c(C(F)(F)F)oc2c(O)c(O)ccc12	mouse	–	intraperitoneal	100 mg/kg	DMSO vehicle	36900 nM
O=S(=O)(Nc1ccc(OC(F)(F)F)cc1)N1CCCC(C2c3ccc(F)cc3CCc3cc(F)ccc32)C1 (centres unmarked)	mouse	–	oral	30 mg/kg	–	~18000 nM
O=C(c1ccccc1)N1C(c2ccc(OCC3CCN(CCCF)C3)cc2)c2ccc(O)cc2CC12CC2 (centres unmarked)	C57BL/6J mouse	plasma	oral	25 mg/kg	–	811 ng/mL and 771 ng/mL
Cc1ccc(OCC(=O)N(Cc2cccs2)c2ccn[nH]2)cc1	male CD-1 mouse	plasma	oral	30 mg/kg	–	382 nM
Cc1[nH]nc2c1N=C(c1ccccc1Cl)c1cnc(N3CCOCC3)cc1N2	nude mouse, HCC1806 xenograft	tumor	oral	15 mg/kg once daily	–	443 ng/mL
CN[C@H](CC(C)C)C(=O)N[C@H]1C(=O)N[C@@H](CC(N)=O)C(=O)N[C@H]2C(=N)N[C@H]3C(=O)N[C@H](C(=O)N[C@H](C(=O)NCCC[N+](C)(C)C)c4cc(O)cc(O)c4-c4cc3ccc4O)[C@H](O)c3ccc(c(Cl)c3)Oc3cc2cc(c3O[C@@H]2O[C@H](CO)[C@@H](O)[C@H](O)[C@H]2O[C@H]2C[C@](C)(NCc3ccc(-c4ccc(Cl)cc4)cc3)[C@H](O)[C@H](C)O2)Oc2ccc(cc2Cl)[C@H]1O	mouse	–	intravenous	50 mg/kg	–	387000 ng/mL
O=S(=O)(NCc1ccncc1)c1ccc(C2CCCCC2)cc1	C57BL/6J mouse, male	peripheral fat	intraperitoneal	0.3 mg/kg	–	131 nM
Cc1nn(-c2nc3c(F)cc(F)cc3s2)c(O)c1C(c1ccc(C(F)(F)F)cc1)c1c(C)nn(-c2nc3c(F)cc(F)cc3s2)c1O	ICR mouse	plasma	intraperitoneal	10 mg/kg	–	4320 ng/mL and 4370 ng/mL and 4550 ng/mL
Cc1ncc2c(n1)CN(C(=O)Nc1nc(-c3cccs3)ccc1N)C2	C57BL/6 mouse	brain	oral gavage	10 mg/kg	20% HPβCD in water	289 ng/mL
CC[C@H](C)[C@H](NC(=O)[C@H](CCCNC(=N)N)NC(=O)[C@H](Cc1c[nH]cn1)NC(=O)[C@@H](N)[C@@H](C)O)C(=O)N[C@@H](CC(C)C)C(=O)N[C@@H](CCCNC(=N)N)C(=O)N[C@@H](CCCNC(=N)N)C(=O)N[C@@H](CC(C)C)C(=O)N[C@@H](Cc1ccccc1)C(=O)N[C@@H](CC(N)=O)C(=O)N[C@@H](CC(C)C)C(=O)N[C@@H](CS)C(N)=O	male C57BL/6J mouse	plasma	intraperitoneal	5 mg/kg	–	7 nM
O=S(=O)(N[C@H]1CCC[C@@H](N2c3ccccc3CCc3ccccc32)[C@@H]1O)c1ccc(OC(F)(F)F)cc1	mouse	plasma	oral	100 mg/kg	solution	2250 ng/mL

Some of these lines once more:
Structure (SMILES)	species	medium	route	dose	notes	Cmax
O=C(Cc1ccc(OCc2ccccc2)cc1)NC1(C(=O)O)CCN(C(=O)c2ccc(-c3cccc(Cl)c3)cc2)CC1	mouse BALB/c female	–	intraperitoneal	20 mg/kg	–	3470 ± 400 ng/mL
